Results from different studies.
Protocols differ between the studies behind these lines.

For `Cc1ncsc1-c1ccc(CNC(=O)[C@@H]2C[C@@H](O)CN2C(=O)[C@@H](NC(=O)COCC(C)(COCCOCCOCCNC(=O)C[C@@H]2N=C(c3ccc(Cl)cc3)c3c(sc(C)c3C)-n3c(C)nnc32)COCCOCCOCCNC(=O)C[C@@H]2N=C(c3ccc(Cl)cc3)c3c(sc(C)c3C)-n3c(C)nnc32)C(C)(C)C)cc1`, the Cmax was 3830 ng/mL (male C57BL/6 mouse, plasma; subcutaneous, 5 mg/kg, single dose).
The Cmax of `O=C(C1CC1)N1CCC=C(c2cc3c(Nc4cc5ncsc5cc4F)ncnc3s2)C1` is reported as 5760 ng/mL (mouse, plasma; intravenous, 10 mg/kg).
`COc1cnc2cccc(N3CCc4c(cc(Cn5ccnc5)cc4-c4cn(C)nc4C(F)(F)F)C3=O)c2c1` has a Cmax of 30200 ng/mL (male CD-1 mouse, plasma; intraperitoneal, 100 mg/kg).
The Cmax of `COc1ccccc1/C=C/CNCC(O)COc1ccc(Nc2ccccc2)cc1` (racemic) is reported as 314 ng/mL (mouse, plasma; intraperitoneal, 10 mg/kg).
`CC(C)NC(=O)NC1CC=C(c2cc3c(Nc4cc5ncsc5cc4F)ncnc3s2)CC1` (racemic) has a Cmax of 4330 ng/mL (mouse, plasma; intravenous, 10 mg/kg).
`CN[C@H](CC(C)C)C(=O)N[C@H]1C(=O)N[C@@H](CC(N)=O)C(=O)N[C@H]2C(=O)N[C@H]3C(=O)N[C@H](C(=O)N[C@H](C(=O)N[C@H](CCCNC(=N)N)C(N)=O)c4cc(O)cc(O)c4-c4cc3ccc4O)[C@H](O)c3ccc(c(Cl)c3)Oc3cc2cc(c3O[C@@H]2O[C@H](CO)[C@@H](O)[C@H](O)[C@H]2O[C@H]2C[C@](C)(N)[C@H](O)[C@H](C)O2)Oc2ccc(cc2Cl)[C@H]1O` gave a Cmax of 126000 ng/mL (female CD-1 mouse, plasma; intravenous, 50 mg/kg, single dose).
The Cmax of `CC(C)(C)c1cnc(CSc2cnc(NC(=O)C3CCN(C(=O)CCCCCCCN4Cc5cc6c(cc5C4)C(=O)N(C4CCC(=O)NC4=O)C6=O)CC3)s2)o1` (stereo not shown) is reported as 280 ng/mL (mouse, plasma; intravenous, 2 mg/kg).
With `Cn1ccc(-c2cc(Cl)c(Cl)c3[nH]c4c(c23)CN(C(=O)CO)CC4)n1` the Cmax was 20.5 µM (C57BL/6 mouse, blood; oral, 100 mg/kg).
`O=S(=O)(N[C@H]1CCC[C@@H](N2c3ccccc3CCc3ccccc32)[C@@H]1O)c1ccc(OC(F)(F)F)cc1` gave a Cmax of 1480 ng/mL (mouse, plasma; intravenous, 1 mg/kg).
For `O=C(OC(C(F)(F)F)C(F)(F)F)N1CCC(CNS(=O)(=O)c2ccc(Cl)cc2)CC1`, the Cmax was 2330 ng/mL (male SCID mouse, brain; oral, 10 mg/kg).
For `O=S(=O)(N[C@H]1CCO[C@@H](C2c3ccc(F)cc3CCc3cc(F)ccc32)C1)c1ccc(OC(F)(F)F)cc1`, the Cmax was 1970 ng/mL (mouse, plasma; oral, 30 mg/kg).
`Oc1ccc([C@@H]2Oc3ccc(O)cc3[C@@H]3CCC[C@@H]32)cc1` gave a Cmax of 4 µM (male C57BL/6 mouse, plasma; intravenous, 1 mg/kg).
`COC(=O)C1=CNC=C(C(=O)OC)C1c1ccc(F)c(C(F)(F)F)c1` gave a Cmax of 2570 ng/mL (male C57BL/6 mouse, plasma; oral, 50 mg/kg).
The Cmax of `COC1C(c2ccc(Cl)c(Cc3ccc(OC4CCOC4)cc3)c2)OC(CO)C(O)C1O` (stereo not shown) is reported as 6670 ng/mL (CD-1 mouse, plasma; intravenous, 5 mg/kg).
The Cmax of `Cc1cc(NC(=O)[C@H](O)c2cc(F)cc(F)c2)ccc1-c1cnc(N)c(C(=O)NC(C)C)c1` is reported as 1710 ng/mL (female nude mouse, plasma; oral, 10 mg/kg, single dose).
`Cc1cc(NCC(=O)C(C)C)c2nc(N3CCOC[C@H]3C)cc(=O)n2c1` gave a Cmax of 2770 ng/mL (C57BL/6 mouse, plasma; intraperitoneal, 10 mg/kg, single dose).
